# Assay results of several laboratories.
# Protocols differ between the studies behind these lines. Numbers after ± are the reported error.
Substance,tested on,test,system,setting,measurement,result
CCCCCCCCCCCC(=O)OC1=CC(C)(C)N([O])C(C)(C)C1,"Liver carboxylesterase 1 (CES1, Homo sapiens, UniProt P23141)",,,,Km,36.9 ± 4.92 µM
O=C(O)C[C@H](O)C(=O)O,"Probable malate:quinone oxidoreductase 1 (mqo1, Staphylococcus aureus, UniProt Q5HDJ0)","substrate, NBT reduction",,"cardiolipin/PE vesicles, together with: 1.4 mM menaquinone",Km,180 µM
OCC1(O)OC[C@@H](O)[C@@H](O)[C@@H]1O (stereo partly drawn),"mtlD (Pseudomonas fluorescens, UniProt O08355, E292A)",substrate,,,Km,130 ± 10 µM
GGNWST,"UDP-glucose:protein N-beta-glucosyltransferase (Actinobacillus pleuropneumoniae serotype 5b, UniProt A3N2T3, D215R/Q469A)",substrate,peptide,"15 min, pH 8.0, 37 °C, D215R mutant, together with: UDP-Glc 100 mM",Km,17600 ± 2500 µM
CN[C@@](C)(C[18F])C(=O)O,A549 tumour model,,"host not given, tumour","1 h, tumour-bearing",tracer uptake,5.1 %ID/g
CCCCCCCCCCCCCCCC(=O)Oc1ccc([N+](=O)[O-])cc1,Pseudomonas aeruginosa mutant alkaline lipase,substrate,,,Km,2 mg/mL
CC(=O)SCCNC(=O)CCNC(=O)[C@H](O)C(C)(C)COP(=O)(O)OP(=O)(O)OC[C@H]1O[C@@H](n2cnc3c(N)ncnc32)[C@H](O)[C@@H]1OP(=O)(O)O,"cysE, with CysK (Escherichia coli, UniProt P0A9D4)",substrate,,"together with: CysK fivefold molar excess, L-Ser 20 mM",Km,800 ± 200 µM
O=C[C@H](O)COP(=O)(O)O,"1-deoxy-D-xylulose-5-phosphate synthase (dxs, Escherichia coli, UniProt P77488, H299A)",substrate,,,Km,3.3 µM
OCCSSCCO,"Glutaredoxin 1 (Alkaliphilus oremlandii, UniProt A8MIN3)",substrate,,,Km,1500 ± 400 µM
N[C@@H](Cc1ccc(O)c(I)c1)C(=O)O,"Iodotyrosine deiodinase (Haliscomenobacter hydrossis, UniProt F4KU78)",substrate,,pH 7.4,Km,49 ± 10 µM
O=C[C@H](O)COP(=O)(O)O,"1-deoxy-D-xylulose-5-phosphate synthase (dxs, Escherichia coli, UniProt P77488, Y392F)",substrate,,,Km,280 ± 30 µM
CCCCC/C=C\C/C=C\C/C=C\C/C=C\CCCC(=O)NCCO,"Fatty-acid amide hydrolase 1 (Faah, Rattus norvegicus, UniProt P97612)",substrate,"Sprague-Dawley rats, voluntary exercise, rat hippocampus membranes",,Km,0.61 ± 0.09 µM
O=[N+]([O-])c1ccc(Cl)c([N+](=O)[O-])c1,"Glutathione S-transferase sigma 1 (Clonorchis sinensis, UniProt O97096)",substrate,,,Km,730 µM
Oc1ccccc1,horseradish peroxidase,substrate,,,Km,1450 µM
CCCCCCCC/C=C\CCCCCCCC(=O)O,"rpfB (Xanthomonas campestris, UniProt O05174)","substrate, DTNB thiol",,"pH 7.2, 30 °C, together with: ATP 5 mM and CoA 0.5 mM",Km,49.2 µM

# A few entries again:
Substance,tested on,test,system,setting,measurement,result
OCCSSCCO,"Glutaredoxin 1 (Alkaliphilus oremlandii, UniProt A8MIN3)",substrate,,,Km,1500 ± 400 µM
N[C@@H](Cc1ccc(O)c(I)c1)C(=O)O,"Iodotyrosine deiodinase (Haliscomenobacter hydrossis, UniProt F4KU78)",substrate,,pH 7.4,Km,49 ± 10 µM
